Results pooled from the literature.
Compare with care: the assays were run in different laboratories. Values joined by “and” are separate records of one study, mostly repeats; a detail may differ. ± gives the spread as reported.

With `C[C@H](NC(=O)c1c(C(F)F)nn(C)c1Oc1cccc(C(F)(F)F)c1)c1ccc(C(=O)O)cc1` the partial response was 0% (irRECIST; human, advanced tumours; 500 mg; best overall response).
`C[C@H](Oc1ccc(Br)cc1-c1ccon1)C(=O)O`: “difference from placebo” -0.281% (first response latency; human, tibialis anterior muscle; 800 mg, 15 Hz, single ascending dose).
`Cc1cc(-c2nnc(N)nc2-c2ccc(F)cc2)cc(Cl)n1`: “GSVA score change” 0.173 (NanoString, refers to: M2.core.Becker.IO signature; human mCRPC, peripheral blood; dose not given, 2 or 4 weeks; relative to: baseline, direction not given).
Under “tumour volume change”, `CC(C)[C@H](C(=O)Nc1ccc(C(=O)NO)cc1)c1ccccc1` is recorded as 60% (volumetric MRI; human, left IAC schwannoma; dose not given, day 224; relative to: baseline).
For `COc1cc(Nc2ncc3c(n2)-c2ccc(Cl)cc2C(c2c(F)cccc2OC)=NC3)ccc1C(=O)O`, “relative tumour volume T/C” read 2.08 (mouse, NB-1771 neuroblastoma xenograft; oral, 2.6 mg/kg, day 21; relative to: vehicle).
Under serum ALT, `CCc1c(C)nc(-c2ccc(Cl)s2)nc1Nc1ccc(CC(=O)O)cc1` is recorded as “decreased” (mice, chronic ethanol plus binge; intraperitoneal, 0.3 mg/kg daily, ethanol diet 4 weeks, dosed last two; relative to: vehicle).
The progression-free survival of `O=C(NO)c1ccc(CN(c2cnccn2)c2cnccn2)cc1` is reported as 16.4 months (human; 200 mg BID).
`CC(C)NCC(O)c1ccc(O)c(O)c1` (stereo not drawn) gave a sarcomere length of 1.72 µm (ventricular cardiomyocytes, C57BL/6 mouse; dose not given, 0.688 s).
`Cc1n[nH]c2ccc(-c3cc(OC[C@@H](N)Cc4ccccc4)cnc3-c3ccoc3)cc12` — result for “log2 fold change”: -0.208 (kinase binding, competitor, MIB/MS competition, refers to: RIM11; Candida albicans cell lysate; 100 nM; relative to: DMSO).
`CCN1CCN(Cc2ccc(Nc3ncc(F)c(-c4cc(F)c5nc6n(c5c4)[C@H](C)CCC6)n3)nc2)CC1` gave a partial response of 0% (human advanced solid tumours; 50 mg, phase Ia monotherapy RECIST 1.1).
`O=C(COc1ccc(Cl)cc1)NC12CC(c3nnc([C@H]4C[C@@H](OC(F)(F)F)C4)o3)(C1)C2` — result for “mRNA level change”: -56.2% (refers to: CHAC1; PBMC ex vivo stimulated, human ALS patients; 100 mg, D28 predose; relative to: baseline).
For `COc1ccc(-c2cncc(N[C@@H](C)c3cccc(NC(=O)c4cncc(C)c4)c3)n2)cc1OC`, the fold change was 0.758 (refers to: rno-miR-138-5p; rat SU5416/hypoxia model, lung; dose not given; relative to: SU5416/hypoxia vehicle).
Under “share of responses”, `CC(C)[C@H](NC(=O)[C@H](Cc1ccc(O)cc1)NC(=O)[C@H](Cc1ccc(O)cc1)NC(=O)[C@@H]1CCCN1C(=O)[C@H](CCC(=O)O)NC(=O)[C@H](CCC(=O)O)NC(=O)[C@H](Cc1c[nH]c2ccccc12)NC(=O)[C@@H]1CCCN1C(=O)[C@@H](NC(=O)[C@H](CCC(N)=O)NC(=O)c1ccc2c(c1)C(=O)OC21c2ccc(O)cc2Oc2cc(O)ccc21)C(C)C)C(=O)N[C@H](C(=O)N[C@@H](CCCCN)C(=O)N[C@@H](CCCCN)C(=O)N[C@@H](CO)C(=O)N[C@@H](CO)C(=O)NCC(=O)NCC(N)=O)C(C)C` is recorded as 28.6% (added benefit of NERVE; human head and neck surgery, nerves; 500 mg, much added benefit; relative to: white light).
`C[C@H]1O[C@@H](O[C@H]2CC[C@@]3(C)[C@@H](CC[C@]4(C)[C@@H]3C=C[C@]35OC[C@@]6(CCC(C)(C)C[C@H]63)[C@@H](O)C[C@]54C)[C@]2(C)CO)[C@H](O)[C@@H](O[C@@H]2O[C@H](CO)[C@@H](O)[C@H](O)[C@H]2O)[C@H]1O`: “Oil Red O area” 5.6% and 4.86% and 5.17% (histology; mice, normal diet, liver; dose not given, high dose).
Under “C3d-positive type III RBCs”, `CCO[C@H]1CCN(Cc2c(OC)cc(C)c3[nH]ccc23)[C@H](c2ccc(C(=O)O)cc2)C1` is recorded as -73.2% (PNH patients, blood; oral, 50 mg then 200 mg, week 2, mean percent change; relative to: baseline).
For `N#Cc1ccc2c(-c3ccncc3)c(-c3ccc(F)cc3)nn2c1`, “log2 fold change” read 0.22 (kinase binding, competitor, MIB/MS competition, refers to: CKA1; Candida albicans cell lysate; 10 µM; relative to: DMSO).
`Cl.O=C(c1cc(Cc2n[nH]c(=O)c3ccccc23)ccc1F)N1CC(CNC2CC2)C1` — result for “tumour growth inhibition”: 82.5% (BALB/c nude mouse, CAPAN-1 xenograft; oral, 100 mg/kg once daily, 28 days).
For `CCCCC1(CCCC)CN(c2ccccc2)c2cc(SC)c(OCC(=O)N[C@@H](C(=O)NCC(=O)O)c3ccccc3)cc2S(=O)(=O)C1`, the plasma C4 was 48.9 ng/mL (refers to: 7α-hydroxy-4-cholesten-3-one; human, plasma; 10 mg once daily, day 11).
For `CSCCNc1nc(SCCC(F)(F)F)nc2c1ncn2[C@@H]1O[C@H](COP(=O)(O)OP(=O)(O)C(Cl)(Cl)P(=O)(O)O)[C@@H](O)[C@H]1O`, “patients with IPA above 90%” read 0% (light transmittance aggregometry; human patients, platelet-rich plasma; dose not given, 2 h, together with: ADP 20 µM; relative to: patients).
`O=S(=O)(NCCNC/C=C/c1ccc(Br)cc1)c1cccc2cnccc12`: “embryos reaching blastocyst” 21.1% and 35.3% and 35% (mouse zygotes; 20 µM, 120 h post-hCG).
For `CO[C@H]1CC[C@H](N2C(=O)CNc3ncc(-c4ccc(C(C)(C)O)nc4)nc32)CC1`, “pAKT change from baseline” read 30.2% (flow cytometry; stimulated monocytes, human, blood; 60 mg single dose, 24 h, mean; relative to: baseline).
Under “percent change from baseline”, `C[C@H]1C[C@H]2CSC(N)=N[C@@]2(c2nc(NC(=O)c3ccc(OC(F)F)cn3)cs2)CO1` is recorded as -62.3% (refers to: Aβx-40; healthy adults, plasma; 50 mg once daily, day 10; relative to: placebo).
`Cn1cc(Nc2nccc(-c3ccc4c(c3)CN(C3COC3)CC[C@H]4NC(=O)c3cn(C(C)(C)C)nn3)n2)cn1` — result for “pathway activation z-score”: 1 (refers to: Endometrial Cancer Signaling; splenic B cells, Mus musculus; 30 mg/kg, together with: IgD activation; relative to: vehicle, direction not given).
Under “EEG beta power, O2 Pz, change in”, `OC(CCN1CCCCC1)(c1ccccc1)C1CC2C=CC1C2` (stereo not drawn) is recorded as -4.7% (resting-state EEG; healthy elderly humans; oral, 2 mg, eyes closed, LS mean; relative to: baseline).
`N#Cc1ccc2c(c1)[C@H]1CCCN(C(=O)c3ccc4[nH]cnc4c3)[C@H]1C2`: “change from baseline” -0.58 mg/L (refers to: 1,5-anhydroglucitol; human; 240 mg once daily, day 28, adjusted mean).
`COc1ccc(F)cc1C(=O)NCc1ccc(-c2nn([C@@H](C)C(F)(F)F)c(N)c2C(N)=O)cc1`: “tumour growth inhibition” 93% (mouse OCI-Ly10 xenograft; 50 mg/kg twice daily, 840 h, 35 days after withdrawal).
The inhibition of `Cn1cc(Nc2nc(N)nc(-c3cccc(-n4ccc5cc(C6CC6)cc(F)c5c4=O)c3CO)n2)cn1` is reported as 97.4% (CD63 upregulation, anti-IgE-induced; human, multiple ascending dose, whole blood basophils ex vivo; 300 mg twice daily, day 14, 4 h).
`CN(C(=O)n1cnc(-c2ccc[n+]([O-])c2)c1)C1CCCCC1`: “dose for maximal effect” 0.3 mg/kg (refers to: AEA and OEA levels; cynomolgus monkey (Macaca fascicularis), plasma; oral, tested doses 0.1, 0.3, 1.0 mg/kg).
For `C=C1CC[C@H](OCCCNC(=O)CCOCCOCCOCCOCCOCCOCCOCCOCCOCCOCCOCCOCCOCCOCCOCCOCCOCCOCCOCCOCCOCCOCCOCCOCCOCCOCCOCCOCCOCCOCCOCCOCCOCCOCCOCCOCCNC(=O)CCN2C(=O)CC(SC[C@H](NC(=O)[C@H](CCCNC(=N)N)NC(=O)[C@@H]3CCCN3C(=O)[C@H](CCC(N)=O)NC(=O)[C@H](CC(C)C)NC(=O)[C@H](CCCCN)NC(=O)[C@H](C)NC(=O)[C@@H]3CCCN3C(=O)[C@@H]3CCCN3C(=O)[C@H](CCCCN)NC(=O)[C@H](CCCCN)NC(=O)[C@H](CO)NC(=O)[C@H](CCC(=O)O)NC(=O)[C@H](CCCCN)NC(=O)[C@H](CCCNC(=N)N)NC(=O)[C@H](CCC(N)=O)NC(=O)[C@H](CCC(N)=O)NC(=O)[C@@H](NC(=O)[C@H](CCCNC(=N)N)NC(=O)[C@H](CCC(N)=O)NC(=O)[C@H](Cc3c[nH]cn3)NC(=O)[C@H](CCC(=O)O)NC(=O)[C@@H]3CCCN3C(=O)[C@H](CO)NC(=O)[C@H](CC(C)C)NC(=O)[C@H](Cc3ccccc3)NC(=O)[C@H](CNC(=O)CCCCCCC)NC(=O)[C@H](CO)NC(=O)CN)C(C)C)C(=O)O)C2=O)C/C1=C/C=C1\CCC[C@]2(C)[C@@H]([C@H](C)CCCC(C)(C)O)CC[C@@H]12` (stereo partly drawn), “body weight loss” read 7% (refers to: carcass weight; C57BL/6J mice, LLC tumour-induced cachexia; 0.25 mg/kg daily; relative to: tumour-bearing vehicle).
For `Oc1nc2nonc2cc1Nc1c(F)c(F)c(F)c(F)c1F`, “body fat loss” read ~20% (obese C57BL/6J mice, Western diet 19 weeks; oral gavage, dose not given, once daily).
Under “serum TC, TG, AST and ALT”, `Cc1cc(/C=C2\Oc3cc(OCC4CC4)ccc3C2=O)cc(C)c1OC(C)(C)C(=O)O` is recorded as “decreased” (db/db mice on MCD diet; oral, 30 mg/kg daily, 45 days; relative to: untreated model).
With `CC(c1cc2ccccc2s1)N(O)C(N)=O` (stereo not drawn) the amount was 54 ± 10 pg/mL blood (refers to: LTB4 isomers; human whole blood; 3 µM, together with: Escherichia coli).
`C[C@@H](O)CCOC(=O)C[C@@H](C)O` has a metabolite level of -6.73 ± 0.76 µmol/L (refers to: C20-OH/C18-DC acylcarnitine; human, plasma; 60 min, log2-transformed values).
`CN[C@@H]1COc2c(S(=O)(=O)NC(=O)Nc3c4c(cc5c3CCC5)CCC4)cnn2C1` has an inhibition of 99.7% (refers to: IL-1β; human participants, whole blood ex vivo; 900 mg single dose, 1 h, together with: LPS/ATP; relative to: baseline).
With `CC(=O)NCC(=O)NCC(=O)N[C@H](C(=O)N[C@@H](Cc1ccc(O)cc1)C(=O)N[C@@H](CO)C(=O)N[C@H]1CSSC[C@@H](C(=O)N[C@@H](CCCNC(=N)N)C(=O)N2CCC[C@H]2C(=O)N[C@@H](CCC(N)=O)C(=O)N[C@@H](CCCNC(=N)N)C(=O)NCC(=O)NCCC(=O)N[C@@H](CCCCNC(=O)CN(CC(=O)NCCCC[C@H](NC(=O)CCNC(=O)CNC(=O)[C@H](CCCNC(=N)N)NC(=O)[C@H](CCC(N)=O)NC(=O)[C@@H]2CCCN2C(=O)[C@H](CCCNC(=N)N)NC(=O)[C@@H]2CSSC[C@H](NC(=O)[C@H](CO)NC(=O)[C@H](Cc3ccc(O)cc3)NC(=O)[C@@H](NC(=O)CNC(=O)CNC(C)=O)[C@@H](C)O)C(=O)N[C@@H](Cc3c[nH]cn3)C(=O)N[C@@H](Cc3ccccc3)C(=O)NCC(=O)N[C@@H](C)C(=O)N[C@@H](CC(C)C)C(=O)N[C@@H]([C@@H](C)O)C(=O)N[C@@H](Cc3c[nH]c4ccccc34)C(=O)N[C@@H](C(C)C)C(=O)N2)C(N)=O)C(=O)CCN)C(N)=O)NC(=O)[C@H](C(C)C)NC(=O)[C@H](Cc2c[nH]c3ccccc23)NC(=O)[C@H]([C@@H](C)O)NC(=O)[C@H](CC(C)C)NC(=O)[C@H](C)NC(=O)CNC(=O)[C@H](Cc2ccccc2)NC(=O)[C@H](Cc2c[nH]cn2)NC1=O)[C@@H](C)O` the reticulocytes was 5.8% (healthy BALB/c mice; subcutaneous, 0.16 mg/kg, 8 d, single dose).
`Cn1cncc1-c1c(F)cncc1NC(=O)c1c(N)nn2cc(F)cnc12`: “rate constant k1” 0.0003 h⁻¹ (tumour growth; mice CTG-3021 gastric xenograft; ARID1A-mutated PK-TGI model).

Repeated from above:
For `CO[C@H]1CC[C@H](N2C(=O)CNc3ncc(-c4ccc(C(C)(C)O)nc4)nc32)CC1`, “pAKT change from baseline” read 30.2% (flow cytometry; stimulated monocytes, human, blood; 60 mg single dose, 24 h, mean; relative to: baseline).
Under “percent change from baseline”, `C[C@H]1C[C@H]2CSC(N)=N[C@@]2(c2nc(NC(=O)c3ccc(OC(F)F)cn3)cs2)CO1` is recorded as -62.3% (refers to: Aβx-40; healthy adults, plasma; 50 mg once daily, day 10; relative to: placebo).
`Cn1cc(Nc2nccc(-c3ccc4c(c3)CN(C3COC3)CC[C@H]4NC(=O)c3cn(C(C)(C)C)nn3)n2)cn1` — result for “pathway activation z-score”: 1 (refers to: Endometrial Cancer Signaling; splenic B cells, Mus musculus; 30 mg/kg, together with: IgD activation; relative to: vehicle, direction not given).
Under “EEG beta power, O2 Pz, change in”, `OC(CCN1CCCCC1)(c1ccccc1)C1CC2C=CC1C2` (stereo not drawn) is recorded as -4.7% (resting-state EEG; healthy elderly humans; oral, 2 mg, eyes closed, LS mean; relative to: baseline).
